# Published values collected from several papers.
# Compare with care: the assays were run in different laboratories.
# Target: Inhibitor of nuclear factor kappa-B kinase subunit beta (IKBKB, Homo sapiens, UniProt O14920)
# One construct used (O14920 1-756): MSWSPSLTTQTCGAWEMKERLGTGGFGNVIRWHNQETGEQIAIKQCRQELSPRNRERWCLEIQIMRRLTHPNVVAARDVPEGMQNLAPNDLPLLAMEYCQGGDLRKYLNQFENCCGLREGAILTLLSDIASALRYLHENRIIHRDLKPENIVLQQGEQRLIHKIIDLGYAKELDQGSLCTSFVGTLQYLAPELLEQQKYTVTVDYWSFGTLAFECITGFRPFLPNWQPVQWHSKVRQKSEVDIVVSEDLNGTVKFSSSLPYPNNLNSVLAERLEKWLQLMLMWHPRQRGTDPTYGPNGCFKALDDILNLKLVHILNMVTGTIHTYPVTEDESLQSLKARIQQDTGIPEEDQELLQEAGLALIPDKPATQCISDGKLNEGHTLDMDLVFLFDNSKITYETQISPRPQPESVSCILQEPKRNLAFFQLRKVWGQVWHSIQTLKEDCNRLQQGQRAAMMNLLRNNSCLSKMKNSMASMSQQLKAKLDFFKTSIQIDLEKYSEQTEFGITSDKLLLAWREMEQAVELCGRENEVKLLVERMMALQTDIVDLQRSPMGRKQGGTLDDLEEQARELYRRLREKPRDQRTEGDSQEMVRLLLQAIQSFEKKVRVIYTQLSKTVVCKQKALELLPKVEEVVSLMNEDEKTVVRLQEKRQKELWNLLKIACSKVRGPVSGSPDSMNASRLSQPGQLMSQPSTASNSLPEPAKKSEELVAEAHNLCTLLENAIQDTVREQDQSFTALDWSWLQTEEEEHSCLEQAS
Compound,test,conditions,scale,quantity,value
CN(/N=C/c1ccccc1C(=O)O)c1nc(-c2ccccc2Cl)cs1,"enzyme activity, inhibitor",1 µM,,inhibition,-18.7%
O=C1NC(=O)c2c1c1cc(F)c[n+]3c1c1c2c2cc(O)ccc2[n]1[Ru-4]312([N]=C=S)[S+]3CC[S+]1CC[S+]2CC3 (stereo not drawn),enzyme activity,"100 nM, human enzyme, with: 10 µM ATP",reference: untreated,remaining activity,83%
C[C@H](NCc1ccc(-c2ccc(C(F)(F)F)cc2)cc1)C(N)=O,"cell-free assay, competition with immobilised ligand",1 µM,,inhibition,12%
CCOC(=O)[C@@H]1Cc2c(cc([N+](=O)[O-])cc2[N+](=O)[O-])[C@H](O)[C@]12C(=O)Nc1ccc(Br)cc12,"binding, competition with immobilised ligand",0.1 µM,,remaining binding,100%
CN(C)[C@H]1C[C@@]23CC[C@@]4(O2)C(=CC[C@]2(C)[C@@H](c5ccc6ccncc6c5)CC[C@H]24)C=C3[C@@H](O)[C@@H]1O,"ATP probe labelling, inhibitor, KiNativ profiling",0.1 µM,,inhibition,-2.5%
CS(C)(=O)=Nc1ccc(-c2ccc(-c3nc4cc(O[C@@H]5CO[C@H]6[C@@H]5OC[C@H]6O)[nH]c4cc3F)cc2)cc1,"enzyme activity, inhibitor",10 µM,,inhibition,-6%
O=C(O)c1ccccc1/C=N/Nc1nc(-c2ccccc2Cl)cs1,"enzyme activity, inhibitor",1 µM,,inhibition,-23.9%
Nc1ccc(/C=C/C(=O)N2CCc3c(oc4c(-c5ccc(F)cc5)cc(-c5ccc(C(=O)N6CCC(F)(F)CC6)cn5)cc34)C2)cn1,"binding, competition with immobilised ligand",1 µM,,remaining binding,100%
CC(C)[C@H]1NC(=O)C[C@H]2/C=C/CCSSC[C@@H](NC1=O)C(=O)N[C@H](Cc1cccc3ccccc13)C(=O)NCC(=O)O2,"enzyme activity, inhibitor",10 µM,,inhibition,1.3%

# A few entries again:
Compound,test,conditions,scale,quantity,value
CN(/N=C/c1ccccc1C(=O)O)c1nc(-c2ccccc2Cl)cs1,"enzyme activity, inhibitor",1 µM,,inhibition,-18.7%
